Assay results pooled from the literature.
“And” joins repeats or separate records; there may be more than shown. ± marks the error that the study gave.

SMILES	tested on	test	test system	setting	scale	measurement	value
N.N.[Cl][Pt][Cl]	SK-MEL-28	cell growth, SRB	–	dark, normoxia	–	TGI	1.24 µM
CCn1cc(-c2cc(Cn3ccoc3=N)cc3c2CCN([C@@H](C)c2cc(OC)ccn2)C3=O)c(C(F)(F)F)n1	A101D	cell growth, inhibitor	–	120 h	–	EC50	0.0601 µM
Cc1nn(-c2nc3c(F)cc(F)cc3s2)c(O)c1C(c1ccc(C(F)(F)F)cc1)c1c(C)nn(-c2nc3c(F)cc(F)cc3s2)c1O	RAW-ISG	CCK-8	–	1.563 µM	–	viability	101% and 110% and 105% and 100%
Cn1cncc1C1=CN(c2ncnc3[nH]cnc23)CCS1	SNB-19	–	–	CNS cancer	–	CC50	> 200 µM
CC(C)C[C@H](NC(=O)[C@H](CCc1ccccc1)NC(=O)CN1CCOCC1)C(=O)N[C@@H](Cc1ccccc1)C(=O)N[C@@H](CC(C)C)C(=O)[C@@]1(C)CO1	patient normal conditionally reprogrammed cells	RNA-seq, refers to: DYNC1I1 mRNA	human	concentration not given	baseline: DMSO	fold change	-20.2
CN1CCN(S(=O)(=O)c2cc([N+](=O)[O-])ccc2N(CCOS(C)(=O)=O)CCOS(C)(=O)=O)CC1	sample B B-ALL PDX cells	cell viability	ex vivo	48 h, together with: AKR1C3 inhibitor 1 µM, 1 h pretreatment	–	IC50	15.4 µM
Oc1ccc(C(c2ccc(O)cc2)(C(F)(F)F)C(F)(F)F)cc1	HepG2 spheroids	Hoechst flow cytometry	–	40 µM, 24 h	–	G2 phase cells	23.9 ± 3.25%
N.N.[Cl][Pt][Cl]	SiHa and Ca-Ski	flow cytometry	–	concentration not given, 48 h, compound alone	baseline: DMSO	γ-H2AX increase	~6 fold
COc1cc(CCC[P+](c2ccccc2)(c2ccccc2)c2ccccc2)c(OC)c2c1OCO2.[I-]	UACC-62	SRB	–	–	–	GI50	-6.2 log M
N.N.[Cl][Pt][Cl]	NAMALWA CSN/70	cell proliferation, CellTiter-Glo	–	10 µM, 72 h	–	inhibition	100%
COc1c(C)c2c(c(O)c1C/C=C(\C)CCC(=O)O)C(=O)OC2	SU-DHL10	cell proliferation	blood cancer	–	–	IC50	3.98 µM
CC[C@H](C)[C@@H]1NC(=O)[C@@H]2CCCN2C(=O)[C@H](CC(C)C)NC(=O)[C@H](CC(C)C)NC(=O)CNC(=O)[C@@H](NC(=O)[C@@H](NC(=O)[C@H](CC(=O)O)NC(=O)CNC(=O)[C@@H](NC(=O)[C@H](C)NC(=O)CNC(=O)[C@H](CCCCN)NC(=O)[C@H](CC(C)C)NC(=O)[C@H](CC(C)C)NC(=O)[C@H](CCCCN)NC(=O)CNC(=O)[C@@H](NC(=O)[C@@H](N)CC(C)C)C(C)C)C(C)C)C(C)C)CSSC[C@@H](C(=O)O)NC1=O	–	RNA-seq, refers to: Plscr1	mouse, traumatic brain injury model, frontal cortex and hippocampus	dose not given	baseline: TBI alone	log2 fold change	-2.07
CN1CCN(C2(CNC3CCN(c4cccc(-c5cc6cc(F)ccc6[nH]5)c4)CC3)CCC2)CC1	SNB-19	–	–	NCI60 CNS cancer panel	–	TGI	3.77 µM
Oc1cc(Cl)ccc1Oc1ccc(Cl)cc1Cl	HepG2	extracellular flux, refers to: reserve respiratory capacity	–	24 h, distribution mode 1	–	point of departure	0.0661 µM
COc1cc([C@@H]2c3cc4c(cc3C[C@H]3COC(=O)[C@@H]32)OCO4)cc(OC)c1OC	neuroblastoma M2 (−)	western blot	–	IC50	baseline: untreated	PCNA level	decreased
COc1ccc2c(c1)[nH]c1c(C)nccc12	DU-145	bisulfite pyrosequencing, refers to: RASSF1A promoter CpG site 12	–	concentration not given	baseline: vehicle	methylation reduction	2.73%
O=C(NCCc1c[nH]c2ccccc12)C(=O)c1cn(Cc2ccc(Cl)cc2)c2ccccc12	BxPC-3, MDA-MB-231, PC-3, HeLa, C4-2, HEK293T	MTT	–	100 µM	–	cytotoxicity	not toxic
CC(C)=CCc1c(O)cc(O)cc1-c1cc2ccc(O)c(CC=C(C)C)c2o1	3T3	cell growth, MTT	–	12.5 µg/mL, 48 h	–	cell survival	73.74 ± 0.28%
Cc1c2ccncc2c(C)c2c1[nH]c1ccccc12	FaDu	SRB	–	–	baseline: normal over FaDu IC50	selectivity index	1.02
O=S(=O)(c1ccc(O)cc1)c1ccc(O)cc1	HepG2 spheroids	Hoechst flow cytometry	–	0.1 µM, 24 h	–	S phase cells	9.78 ± 1.53%
C/C=C(/C)C(=O)O[C@H]1C(C)=C2[C@H]([C@@H]1OC(=O)CCCCCCC)[C@@](C)(OC(C)=O)C[C@H](OC(=O)CCC)[C@@]1(O)[C@H]2OC(=O)[C@@]1(C)O	HEK293	protein secretion	–	concentration not given, unit not given	baseline: mock	secreted Gaussia luciferase	0.239

SMILES	tested on	test	test system	setting	scale	measurement	value
C=C(C)[C@@H]1CCC(C)=C[C@H]1c1c(O)cc(CCCCC)cc1O	human sperm	BCECF	–	10 µM	–	intracellular pH	no effect
Oc1cc(O)cc(-c2cc3ccc(O)cc3o2)c1	3T3	cell growth, MTT	–	1.8 µg/mL, 48 h	–	cell survival	83.62 ± 0.42%
CCN(CC)c1ccc(C=NNC(=O)CSc2nc3ccccc3c(=O)n2Cc2ccc(S(N)(=O)=O)cc2)c(O)c1	786-0	NCI five-dose screen	–	–	–	CC50	> 100 µM
CC(C)N1CCC(NC2CCN(c3cccc(-c4cc5cc(F)ccc5[nH]4)c3)CC2)CC1	CCRF-CEM	–	–	–	–	GI50	1.84 µM
C[C@]12CC[C@H](O)C[C@H]1CC[C@@H]1[C@@H]2CC[C@]2(C)[C@@H](c3ccc(=O)oc3)CC[C@]12O	MCF7	RT-qPCR, refers to: CCND1	–	50 nM, 48 h, unit not given, together with: estradiol	baseline: untreated	mRNA level	0.716 and 0.939 and 1.03
CC(c1ccccc1)(c1ccc(O)cc1)c1ccc(O)cc1	HepG2 spheroids	Hoechst flow cytometry	–	0.10 µM, 96 h	–	S phase cells	7.96 ± 1.58%
COc1ccc([C@H]2c3[nH]c4ccc(Cl)cc4c3CCN2C(=O)Oc2ccc(Cl)cc2)cc1	CD19+ B cells with PBMC	cytokine secretion, refers to: s-IL-6	–	0.01 µM, 72 h, BioMAP BT system	–	inhibition	53%
O=C1N(Cc2ccccc2Cl)c2ccccc2C12NN=C(c1ccccc1)S2 (stereo not drawn)	MDA-MB-468	gene expression array, refers to: NQO1 mRNA	–	10 µM, 12 h	baseline: untreated, down	fold change	1.58
O=C1CCP(=S)(c2ccccc2)CC1	HaCaT	trypan blue	–	IC50, 72 h	baseline: untreated	reduction of cell number	27 to 31%
COc1c(CCC[P+](c2ccccc2)(c2ccccc2)c2ccccc2)cc2c(c1OC)OCO2.[I-]	MDA-MB-435	SRB	–	–	–	LC50	-4.45 log M
Nc1ncc(-c2nc(N3CCOCC3)nc(N3CCOCC3)n2)c(C(F)F)n1	SNU-C2B	–	–	72 h	–	GI50	0.607 µM
C/C=C(/C)C(=O)O[C@H]1C(C)=C2[C@H]([C@@H]1OC(=O)CCCCCCC)[C@@](C)(OC(C)=O)C[C@H](OC(=O)CCC)[C@@]1(O)[C@H]2OC(=O)[C@@]1(C)O	HEK-293T	RNA-seq GSEA, refers to: Hallmark p53 pathway	–	500 nM, 6 h	direction not given	normalized enrichment score	1.9
Nc1ncnc2c1ncn2[C@@H]1O[C@@H]2COP(=O)(O)O[C@H]3[C@@H](O)[C@H](n4cnc5c(=O)[nH]cnc54)O[C@@H]3COP(=O)(O)O[C@H]2[C@H]1O	HFF-1	RNA sequencing, refers to: Reactome MHC class I presentation	–	upregulated pathways	baseline: mock	fold enrichment	3.37
Cc1ccc2c(c1)C=Cc1cc(C)ccc1C2c1cn(Cc2ccc(C(=O)Nc3nn[nH]n3)o2)c(=O)[nH]c1=S	N2a	fluorescence signal increase, inhibitor, live-cell imaging	–	1 µM, decay phase only, together with: ATP 300 µM	–	inhibition	36%
COc1cnc(OC)n2nc(NS(=O)(=O)c3c(OCC(F)F)cccc3C(F)(F)F)nc12	HEK293T	cytotoxicity, CCK-8	–	100 µM, 72 h	–	inhibition	0.68 ± 0.19%
N.N.[Cl][Pt][Cl]	MCF7	–	–	irradiated	baseline: IC50 MCF-10A over IC50 MCF7	selectivity ratio	1.5
COc1cc(N2CC[C@@]3(O)C(=O)c4cc(C)c(C)cc4N=C23)ccn1	COS-7	cytokinesis	–	–	–	maximal inhibition	~100%
O=C(Nc1ccc2[nH]nc(-c3ccncc3)c2c1)[C@@H]1CCN(CC(=O)N2CCN(c3ccc(-c4ncccn4)cc3)CC2)C1	HCT116	IncuCyte	–	concentration not given, 28 (unit not given)	–	PI-positive cells	7.5 count and 8.08 count
Cc1cccc(-c2cccc(C)n2)n1.Cc1cccc(-c2cccc(C)n2)n1.F[P-](F)(F)(F)(F)F.F[P-](F)(F)(F)(F)F.[Ru+2].c1ccc2cc(-c3nc4c5cccnc5c5ncccc5c4[nH]3)ccc2c1	SK-MEL-28	cell viability	–	1% O2, together with: blue light 453 nm, 100 J/cm2	–	EC50	59.4 ± 1.4 µM
Oc1ccc(C2(c3ccc(O)cc3)c3ccccc3-c3ccccc32)cc1	HepG2 spheroids	planimetry	–	2.5 µM, 0 to 24 h	baseline: mean area of 72 h spheroids	spheroid area increase	122%
C[C@H]1[C@H](C)CC[C@]2(C(=O)O)CC[C@]3(C)C(=CC[C@@H]4[C@@]5(C)CC[C@H](O)C(C)(C)[C@@H]5CC[C@]43C)[C@H]12	3T3	cell growth, MTT	–	12.5 µg/mL, 48 h	–	cell survival	70.47 ± 0.31%

For quick reference, copied from above:
SMILES	tested on	test	test system	setting	scale	measurement	value
COc1cc(N2CC[C@@]3(O)C(=O)c4cc(C)c(C)cc4N=C23)ccn1	COS-7	cytokinesis	–	–	–	maximal inhibition	~100%
COc1c(C)c2c(c(O)c1C/C=C(\C)CCC(=O)O)C(=O)OC2	SU-DHL10	cell proliferation	blood cancer	–	–	IC50	3.98 µM
O=S(=O)(c1ccc(O)cc1)c1ccc(O)cc1	HepG2 spheroids	Hoechst flow cytometry	–	0.1 µM, 24 h	–	S phase cells	9.78 ± 1.53%
COc1ccc([C@H]2c3[nH]c4ccc(Cl)cc4c3CCN2C(=O)Oc2ccc(Cl)cc2)cc1	CD19+ B cells with PBMC	cytokine secretion, refers to: s-IL-6	–	0.01 µM, 72 h, BioMAP BT system	–	inhibition	53%
N.N.[Cl][Pt][Cl]	SK-MEL-28	cell growth, SRB	–	dark, normoxia	–	TGI	1.24 µM
C[C@H]1[C@H](C)CC[C@]2(C(=O)O)CC[C@]3(C)C(=CC[C@@H]4[C@@]5(C)CC[C@H](O)C(C)(C)[C@@H]5CC[C@]43C)[C@H]12	3T3	cell growth, MTT	–	12.5 µg/mL, 48 h	–	cell survival	70.47 ± 0.31%
Nc1ncc(-c2nc(N3CCOCC3)nc(N3CCOCC3)n2)c(C(F)F)n1	SNU-C2B	–	–	72 h	–	GI50	0.607 µM
